Experimental data collected from several papers.
Parts stem from different laboratories: compare values within a part only. Substitutions count along the parent as printed.

Sample 1 — technique: DHFR PCA, dose-response; medium: yeast; setting: Hill fit, mean, not affinity; with: (+)-ABA, dose series; reading: lower = more sensitive; measurement: ABA EC50
Target: ABI1, truncated, D143A, DHFR fusion (Arabidopsis thaliana, UniProt P49597)
Parent: PYL1, truncated, DHFR fusion (Arabidopsis thaliana, UniProt Q8VZS8); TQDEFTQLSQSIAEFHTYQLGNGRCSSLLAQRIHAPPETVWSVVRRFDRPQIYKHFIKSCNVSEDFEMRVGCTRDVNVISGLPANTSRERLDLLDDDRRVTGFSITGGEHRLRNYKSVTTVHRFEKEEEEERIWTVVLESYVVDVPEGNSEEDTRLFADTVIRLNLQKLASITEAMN
Y53G: 255 µM
L156D: 7.64 µM
I172R: 43.9 µM
Y53W: 14.3 µM
S171R: 1.78 µM
P146D: 666 µM
Q7K: 3.18 µM
F56L: 2.91 µM
D65T: 2.91 µM
V76Q: 683 µM
E67S: 3.5 µM
E4A: 2.52 µM
G71P: 74.7 µM
R113S: 2.67 µM
N61R: 2.64 µM
R123V: 14 µM
A84G: 8.1 µM
K168C: 1.46 µM
S104R: 18.1 µM
R69Y: 11 µM

Sample 2 — technique: protein binding microarray; molecule type: double-stranded DNA, one strand shown; medium: in vitro; concentration: not given; relative to: not given; reading: higher = stronger binding; measurement: E-score
Target: Histone acetyltransferase KAT6A, winged helix 2, GST fusion (KAT6A, Homo sapiens, UniProt Q92794, residues 85-181)
Setting: 8-mer, flanks averaged, mean of 2 arrays, mostly near background
Residues (chain): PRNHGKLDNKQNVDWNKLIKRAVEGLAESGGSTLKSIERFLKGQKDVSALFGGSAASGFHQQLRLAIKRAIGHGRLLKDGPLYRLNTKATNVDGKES
ACCGTAGT: -0.242
CTTTCCTA: -0.0716
GTTCTACA: -0.105
CAACATCA: 0.00446
TACCGAAA: -0.0916
TGTTTAAA: -0.0182
TAAGCTGA: -0.031
ACTATTAG: -0.03
GGAGTTCA: 0.0168
GGATCGAC: 0.135
GCAATCAC: 0.0125
GGCGAGGA: 0.167
AGTGCCCC: 0.0241

Sample 3 — technique: RNA Bind-n-Seq; molecule type: RNA; medium: in vitro; concentration: not given; relative to: input RNA pool; reading: higher = stronger binding; measurement: bound/input enrichment
Target: RING finger protein unkempt homolog, zinc fingers 1-6, GST-SBP tag (UNK, Homo sapiens, UniProt Q9C0B0, residues 30-357)
UniProt Q9C0B0, sequence (30-357, looked up): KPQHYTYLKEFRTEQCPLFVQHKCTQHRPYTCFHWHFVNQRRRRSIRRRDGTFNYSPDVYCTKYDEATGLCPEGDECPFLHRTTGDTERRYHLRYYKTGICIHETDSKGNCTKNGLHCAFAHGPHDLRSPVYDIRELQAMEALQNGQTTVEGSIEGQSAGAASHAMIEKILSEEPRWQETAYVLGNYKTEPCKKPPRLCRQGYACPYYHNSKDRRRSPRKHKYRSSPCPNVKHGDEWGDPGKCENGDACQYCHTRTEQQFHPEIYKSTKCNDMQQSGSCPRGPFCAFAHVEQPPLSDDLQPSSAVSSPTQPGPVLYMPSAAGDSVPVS
Setting: RNA with constant flanks, human and mouse sites, ends assumed
Constant ends, left off below: GGGAGUUCUACAGUCCGACGAUC … CAACAGAGGAUUGAGCAUCA
ACACAGUGAUUCUGCAGAGCCUGAGCUGCUGCUGUGGUGUGGCCCACUGGAGCAAACUGCUGGCACCUAUUCUGGGUUGCUUGUGAACUUCUACUCAUUUCCUAAAUUAAAACAUGCAGC: 0.164 ratio
GGGUAUUUCACAAAGCCUCCACUUGUAGCUCACGCUUCAAGGUCAGCAGAAUCAAAGGUUAUAGAAUUUGGAAAAUCCAAUUUCGUUCAGCCCAUGCAGGGUGAAGUAAUAAGGCCACCC: 0.127 ratio
UUCGAACAGAAAAUGACAGAAACAGCUCAGAAAUUUCAAGAUAUUGAAGAAACUCAUCUCAUUCACAUAAAGGAAAUUAUAGGAUCCUUGUCAAAUGCUAUAAAGGAAAUUCAUUUGCAG: 0.232 ratio
GUGGAGAACCAGAGUCUGCGUGGCGUGGUACAGGAGCUGCAGCAGGCCAUCUCCAAGCUGGAGGCCCGGCUGAACGUGCUGGAGAAGAGCUCGCCUGGCCACCGGGCCACGGCCCCACAG: 0.101 ratio
AGUACUGCCCGUGCAAAUCCCACAACACUGAAUGCAAAGUAGCAAUUUCCAUAGUCACAGUUAGGUAGCUUUAGGGCAAUAUUGCCAUGGUUUUACUCAUGUGCAGGUUUUGAAAAUGUA: 46.7 ratio
CACACAAGUAUGAAGUUUCUUUCAGGUGUAAAUAAUGAAAAAUAAAUGCCUCAUAAAUGAUAGUACAAUGUAACUAUCAAAGUUUUAUAAUUCAUUAUGAGUUAACCAUUUUAAUGUUUC: 0.231 ratio

Sample 4 — technique: RNA Bind-n-Seq; molecule type: RNA; medium: in vitro; concentration: 200 nM; setting: whole 134-nt RNA, ends assumed; with: 150 mM KCl; relative to: input library; reading: higher = stronger binding; measurement: log2 enrichment
Target: Fragile X messenger ribonucleoprotein 1, C-terminal low-complexity region (Fmr1, Mus musculus, UniProt P35922)
Constant ends, left off below: GGGAGUUCUACAGUCCGACGAUC … UGGAAUUCUCGGGUGUCAAGG
UCCUCAAGUCCUGUGCUACACAUCGUAUGUACCGAAUCGGAGGAGGGAGGGAAAGUAUUAUGUUACGCCGUUCGGAUCUGCACUUCCAGC: -0.249
UGGCCCUGGUGGCAUGCGGGGAGGAAGAGGUGGCCUCAUGGAUCGUGGUGGUCCCGGUGGAAUGUUCAGAGGUGGCCGUGGUGGAGAUAG: 0.202
CUGUGCUACACAUCGUAUGUACCGAAUCGGGGAAAAAAAGGAAAAAAAGGGAAAAAAAGGGGAAAGUAUUAUGUUACGCCGUUCGGAUCU: -0.256
CAAGUCCUGUGCUACACAUCGUAUGUACCGAAUCGGGGAAGGGGAAGGGGAAGGGGAAAGUAUUAUGUUACGCCGUUCGGAUCUGCACUU: 0.924
UGGGAGGUGGAUUUUGUUGAUUUUUUUAGCUCAUUUCCAGGGGUGGGAAUUUUUUUUUAAUAUGUGUCAUGAAUAAAGUUGUUUUUGAAA: 0.217
CUCAAGUCCUGUGCUACACAUCGUAUGUACCGAAUCGGUGGAAAAAAAGGAGGAAAGUAUUAUGUUACGCCGUUCGGAUCUGCACUUCCA: -0.0961
CCUCAAGUCCUGUGCUACACAUCGUAUGUACCGAAUCGGGGAGGGAGGGGAGGAAAGUAUUAUGUUACGCCGUUCGGAUCUGCACUUCCA: 0.873
UAACUUUAGAGGAUGAUCUGAUGGAUAUGGCAGUGGACGUGGAUUUGGGGAUGGCUAUAAUGGGUAUGGAGGAGGACCUGGAGGUGGCAA: 0.261
AAGUCCUGUGCUACACAUCGUAUGUACCGAAUCGUGUGUGUGUGUGUGUGUGUGUGAAAGUAUUAUGUUACGCCGUUCGGAUCUGCACUU: 0.474

Sample 5 — technique: universal PBM; molecule type: double-stranded DNA, one strand shown; medium: in vitro; concentration: not given; reading: higher = stronger binding; measurement: E-score
Target: Sal-like protein 4, full length isoform B (SALL4, Homo sapiens, UniProt Q9UJQ4-2, residues 1-616)
Setting: 8-mer, flanks averaged, mean of replicates
CCTATGGA: 0.0202
TGATGAAA: 0.197
AGGGGGCA: -0.254
ATGATTGG: 0.155
AGAACTAA: 0.0807
CAGCGACA: -0.0829
GCAACCAC: -0.267
CCCAGTAA: 0.0344
ACTACGCA: -0.0413
ATTGATCC: 0.0905
CCCCGGCG: -0.361
CGTCGCGC: -0.239
ATCTGGCA: -0.016
CACATAGA: 0.112
GTCGATTA: 0.203
AGGCGAGA: -0.168
CCTAACCG: -0.233
ACCCAGAT: -0.0795

Sample 6 — technique: protein-binding microarray; molecule type: double-stranded DNA, one strand shown; medium: in vitro; concentration: 250 nM; setting: 60-bp whole probe; with: salmon DNA 0.4 mg/ml; relative to: random background probes; reading: higher = stronger binding; measurement: log fluorescence; constant ends, left off below: GCCTAGCAC … GTCTTGATTCGCTTGACGCTGCTG
Target: Interferon regulatory factor 5, full length, phosphomimetic (IRF5, Homo sapiens, UniProt Q13568-2, residues 1-514, K96S/S451D/S453D/S456D/S462D)
TGGTCTTTCCACTTTCTTTTGTGCTAG: 2.04 z-score
TTAGGACTGGACTGTCGGTTAGTGCTA: -0.0842 z-score
GAAGATTTCGGGACTGGAGACGTGCTA: 1.45 z-score
TTAGGTTTCTGTCTCGGTTAGTGCTAG: 5.26 z-score
TTAGGTCTCGGTTTCAGTTAGTGCTAG: 3.03 z-score
TTTCCACTTTCTTTTGCTTGGTGCTAG: 4.82 z-score
GACGTTATCCTTTTCCTGACGTGCTAG: 0.529 z-score
TCATTTTTCCCTATTATACTGTGCTAG: 1.49 z-score
GACGATATCAGTTTCGAGAGGTGCTAG: 6.37 z-score
TTTTCATTATTGTGTCAACTTGTGCTA: 3.13 z-score
TTAGGACTGGACTTTCGTTTAGTGCTA: 5.92 z-score
ATTGCTTCCTCTTTCACTGCGTGCTAG: 2.38 z-score
GTTTGGGTCTTGTCTGGAGTCGTGCTA: -0.174 z-score
GACGATTTCGGGTATCTAGACGTGCTA: 4.19 z-score

Sample 7 — target: CCNE2, cyclin fold, Cln2 fusion (human); technique: yeast growth competition, sequencing; medium: yeast; setting: strong parent motif; relative to: not given; reading: higher = stronger binding; measurement: normalised enrichment score
Parent: RBL2 docking peptide (human); STTRRRLFVENDS; partner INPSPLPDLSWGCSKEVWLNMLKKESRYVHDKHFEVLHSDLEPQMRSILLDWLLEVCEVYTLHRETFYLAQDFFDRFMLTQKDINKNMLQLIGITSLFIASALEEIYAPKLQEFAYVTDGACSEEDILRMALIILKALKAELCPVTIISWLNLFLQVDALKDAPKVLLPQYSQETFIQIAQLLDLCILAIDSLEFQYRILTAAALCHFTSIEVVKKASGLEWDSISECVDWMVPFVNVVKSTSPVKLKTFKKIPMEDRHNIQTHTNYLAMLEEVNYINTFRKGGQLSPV
V9E: 3.74
S13T: 4.15
R4I: 2.76
R5K F8L: 0.0378
T3P: 3.05
T2G: 5.2
S1N: 4.69
T3M: 1.4
E10W: 1.15
R6Y: 0.393
R5S: 0.527
R4S: 0.52
E10F: 1.89
N11Y: 4.45
E10S: 2.58

A few entries again (sample 7):
S13T: 4.15
R4I: 2.76
R5K F8L: 0.0378
T3P: 3.05
T2G: 5.2
S1N: 4.69
T3M: 1.4
E10W: 1.15
R6Y: 0.393
